Measured values pooled from the literature.
Each line is one published result; not all experiments were run side by side. ± marks the error that the study gave.

CC(C)C[C@H](NC(=O)[C@H](Cc1ccc(O)cc1)NC(=O)[C@@H](CCCNC(=N)N)NC(=O)[C@@H](CO)NC(=O)[C@H](Cc1ccccc1)NC(=O)[C@H](CC1CCCCC1)NC(=O)[C@H](CC(=O)O)NC(=O)CN1CCCN2CCN(CCCN(CC(=O)O)CC2)CC1)C(=O)N[C@@H](Cc1c[nH]c2ccccc12)C(=O)N[C@@H](CO)C(=O)O [copper-64 labelled]  tissue uptake (female NMRI nude mice, tumor; 22 h p.i.): 2.1 ± 0.3 %ID/g
CCCC[C@H](NC(=O)CCCCCCCNC(=O)CN1CCN(CC(=O)O)CCN(CC(=O)O)CC1)C(=O)N[C@H]1CC(=O)NCCCC[C@@H](C(N)=O)NC(=O)[C@H](Cc2c[nH]c3ccccc23)NC(=O)[C@H](CCCNC(=N)N)NC(=O)[C@@H](Cc2ccccc2)NC(=O)[C@H](Cc2c[nH]cn2)NC1=O [copper-64 labelled]  tissue uptake (C57 mice, brain; intravenous, 0.37 MBq, 0.5 h): 0.2 ± 0.08 %ID/g
CSCC[C@H](NC(=O)[C@H](CC(C)C)NC(=O)[C@H](Cc1c[nH]cn1)NC(=O)CNC(=O)[C@@H](NC(=O)[C@H](C)NC(=O)[C@H](Cc1c[nH]c2ccccc12)NC(=O)[C@H](CCC(N)=O)NC(=O)CCOCCOCCOCCOCCNC(=O)CN1CCN(CC(=O)O)CCN(CC(=O)O)CCN(CC(=O)O)CC1)C(C)C)C(N)=O [indium-111 labelled]  tissue uptake (male Swiss nu/nu mice, PC-3 tumour, kidney; intravenous, 10 pmol, 1 h): 2.7 ± 1 %ID/g
Cc1cc(-c2ccc(NC(=O)[C@H](CCCCNC(=O)CCOCCOCCC(=O)N[C@H](Cc3ccccc3)C(=O)N[C@H]3CSSC[C@@H](C(=O)N[C@H](C(=O)O)[C@@H](C)O)NC(=O)[C@H]([C@@H](C)O)NC(=O)[C@H](CCCCN)NC(=O)[C@@H](Cc4c[nH]c5ccccc45)NC(=O)[C@H](Cc4ccc(O)cc4)NC3=O)NC(=O)CN3CCN(CC(=O)O)CCN(CC(=O)O)CCN(CC(=O)O)CC3)c(C)c2)ccc1N=Nc1ccc2c(S(=O)(=O)O)cc(S(=O)(=O)O)c(N)c2c1O [lutetium-177 labelled]  tissue uptake (BALB/c nude mice, male, AR-42J tumour, liver; intravenous, 1.48 MBq): 6.3 ± 1.36 %ID/g
CC(C)C[C@@H](NC(=O)[C@@H](CCC(=O)O)NC(=O)[C@@H](CC(C)C)NC(=O)[C@@H](CC(C)C)NC(=O)[C@@H](CC(C)C)NC(=O)[C@H](NC(=O)[C@@H](CCC(=O)O)NC(=O)[C@H](NC(=O)[C@H]1CCCN1C(=O)[C@@H](Cc1ccccc1)NC(=O)[C@@H](CC(C)C)NC(=O)[C@@H](Cc1c[nH]c2ccccc12)NC(=O)[C@@H](CCC(=O)O)NC(=O)[C@@H](CC(C)C)NC(=O)[C@@H](Cc1ccc(O)cc1)NC(=O)[C@@H](CCCNC(=N)N)NC(=O)[C@@H](C)NC(=O)[C@@H](Cc1c[nH]c2ccccc12)NC(=O)[C@H]1CCCN1C(=O)[C@@H](CC(N)=O)NC(=O)[C@@H](CCC(N)=O)NC(=O)[C@@H](CCC(=O)O)NC(=O)[C@@H](CCC(=O)O)NC(=O)[C@@H](CS)NC(=O)[C@@H](C)NC(=S)Nc1ccc(CC2CN(CC(=O)O)CCN(CC(=O)O)CCN2CC(=O)O)cc1)[C@H](C)O)[C@H](C)O)C(=O)O (stereo partly shown) [fluorine-18 labelled]  tissue uptake (BALB/c mice, female, 4T1 orthotopic tumour, large intestine; intravenous, 4 h): 22.1 ± 6.02 %ID/g
N=C(N)NCCC[C@@H]1NC(=O)[C@H](CCCCNC(=O)CNC(=O)CNC(=O)CNC(=O)CC[C@H](NC(=O)CNC(=O)CNC(=O)CNC(=O)CC[C@H](NC(=O)CN2CCN(CC(=O)O)CCN(CC(=O)O)CCN(CC(=O)O)CC2)C(=O)NCC(=O)NCC(=O)NCC(=O)N[C@@H](CCC(=O)NCC(=O)NCC(=O)NCC(=O)NCCCC[C@@H]2NC(=O)[C@@H](Cc3ccccc3)NC(=O)[C@H](CC(=O)O)NC(=O)CNC(=O)[C@H](CCCNC(=N)N)NC2=O)C(=O)NCC(=O)NCC(=O)NCC(=O)NCCCC[C@@H]2NC(=O)[C@@H](Cc3ccccc3)NC(=O)[C@H](CC(=O)O)NC(=O)CNC(=O)[C@H](CCCNC(=N)N)NC2=O)C(=O)NCC(=O)NCC(=O)NCC(=O)NCCCC[C@@H]2NC(=O)[C@@H](Cc3ccccc3)NC(=O)[C@H](CC(=O)O)NC(=O)CNC(=O)[C@H](CCCNC(=N)N)NC2=O)NC(=O)[C@@H](Cc2ccccc2)NC(=O)[C@H](CC(=O)O)NC(=O)CNC1=O [indium-111 labelled]  tissue uptake (female athymic nu/nu mice, brain; intravenous, 72 h): 0.1 ± 0.04 %ID/g
CC(C)C[C@@H](NC(=O)[C@@H](CC(C)C)NC(=O)[C@@H](CC(=O)O)NC(=O)[C@@H](CC(C)C)NC(=O)[C@@H](CC(C)C)NC(=O)[C@@H](CC(C)C)NC(=O)[C@H](NC(=O)[C@@H](CC(=O)O)NC(=O)[C@H](NC(=O)[C@H]1CCCN1C(=O)[C@@H](Cc1ccccc1)NC(=O)[C@@H](CC(C)C)NC(=O)[C@@H](CC(C)C)NC(=O)[C@@H](CC(=O)O)NC(=O)[C@@H](CC(C)C)NC(=O)[C@@H](Cc1ccc(O)cc1)NC(=O)[C@@H](C)NC(=O)[C@@H](CCCNC(=N)N)NC(=O)[C@@H](Cc1c[nH]c2ccccc12)NC(=O)[C@H]1CCCN1C(=O)[C@@H](CC(N)=O)NC(=O)[C@@H](CCC(N)=O)NC(=O)[C@@H](CC(=O)O)NC(=O)[C@@H](CC(=O)O)NC(=O)[C@@H](CS)NC(=O)[C@@H](C)NC(=S)Nc1ccc(CC2CN(CC(=O)O)CCN(CC(=O)O)CCN2CC(=O)O)cc1)[C@H](C)O)[C@H](C)O)C(=O)N[C@H](Cc1c[nH]c2ccccc12)C(=O)O (stereo partly shown) [copper-64 labelled]  tissue uptake (BALB/c mice, female, 4T1 orthotopic tumour, large intestine; intravenous, 4 h): 7.45 ± 2.73 %ID/g
CCCC[C@H](NC(=O)CNC(=O)CNC(=O)CN1CCN(CC(=O)O)CCN(CC(=O)O)CC1)C(=O)N[C@H]1CC(=O)NCCCC[C@@H](C(N)=O)NC(=O)[C@H](Cc2c[nH]c3ccccc23)NC(=O)[C@H](CCCNC(=N)N)NC(=O)[C@@H](Cc2ccccc2)NC(=O)[C@H](Cc2c[nH]cn2)NC1=O [technetium-99m labelled]  tissue uptake (C57 mice, whole blood; intravenous, 0.037 MBq, 0.5 h): 1.44 ± 0.33 %ID/g
CCCC[C@H](NC(=O)COCCOCCNC(=O)CN1CCN(CC(=O)O)CCN(CC(=O)O)CC1)C(=O)N[C@H]1CC(=O)NCCCC[C@@H](C(N)=O)NC(=O)[C@H](Cc2c[nH]c3ccccc23)NC(=O)[C@H](CCCNC(=N)N)NC(=O)[C@@H](Cc2ccccc2)NC(=O)[C@H](Cc2c[nH]cn2)NC1=O [copper-64 labelled]  tissue uptake (C57 mice, kidney; intravenous, 0.37 MBq, 4 h): 3.27 ± 0.52 %ID/g
CN1C(=O)[C@@H](Cc2ccc(O)cc2)NC(=O)CNC(=O)[C@H](Cc2ccc3ccccc3c2)NC(=O)[C@H](CCCNC(=N)N)NC(=O)[C@H]1CCCNC(=O)c1ccc(CNC(=O)CN2CCN(CC(=O)O)CCN(CC(=O)O)CCN(CC(=O)O)CC2)cc1 [gallium-68 labelled]  tissue uptake (SCID mice, lymphoma xenograft, lungs; intravenous, 2 h): 0.9 ± 0.2 %ID/g
Cc1cc(O)cc(C)c1C[C@H](NC(=O)[C@@H]1CCCN1C(=O)[C@H](CCCNC(=N)N)NC(=O)[C@H](CCCNC(=N)N)N(C)C(=O)[C@@H]1CCCN1C(=O)[C@H](CCCCN)NC(=O)CCNC(=O)CN1CCN(CC(=O)O)CCN(CC(=O)O)CCN(CC(=O)O)CC1)C(=O)N[C@H](C(=O)N[C@@H](CC(C)C)C(=O)O)C(C)(C)C [lutetium-177 labelled]  tissue uptake (CF-1 mice, small intestine; dose not given, 1 h): 3.31 ± 0.41 %ID/g
CC(C)C[C@@H](NC(=O)[C@@H](CCC(=O)O)NC(=O)[C@@H](CC(C)C)NC(=O)[C@@H](CC(C)C)NC(=O)[C@@H](CC(C)C)NC(=O)[C@H](NC(=O)[C@@H](CCC(=O)O)NC(=O)[C@H](NC(=O)[C@H]1CCCN1C(=O)[C@@H](Cc1ccccc1)NC(=O)[C@@H](CC(C)C)NC(=O)[C@@H](Cc1c[nH]c2ccccc12)NC(=O)[C@@H](CCC(=O)O)NC(=O)[C@@H](CC(C)C)NC(=O)[C@@H](Cc1ccc(O)cc1)NC(=O)[C@@H](CCCNC(=N)N)NC(=O)[C@@H](C)NC(=O)[C@@H](Cc1c[nH]c2ccccc12)NC(=O)[C@H]1CCCN1C(=O)[C@@H](CC(N)=O)NC(=O)[C@@H](CCC(N)=O)NC(=O)[C@@H](CCC(=O)O)NC(=O)[C@@H](CCC(=O)O)NC(=O)[C@@H](CSC1CC(=O)N(CCNC(=O)CN2CCN(CC(=O)O)CCN(CC(=O)O)CC2)C1=O)NC(=O)[C@@H](C)N)[C@H](C)O)[C@H](C)O)C(=O)O (stereo partly shown) [fluorine-18 labelled]  tissue uptake (BALB/c mice, female, 4T1 orthotopic tumour, large intestine; intravenous, 4 h): 0.91 ± 0.12 %ID/g
N=C(N)NCCC[C@@H]1NC(=O)[C@H](CCCCNC(=O)CC[C@H](NC(=O)CC[C@H](NC(=O)CN2CCN(CC(=O)O)CCN(CC(=O)O)CCN(CC(=O)O)CC2)C(=O)N[C@@H](CCC(=O)NCCCC[C@@H]2NC(=O)[C@@H](Cc3ccccc3)NC(=O)[C@H](CC(=O)O)NC(=O)CNC(=O)[C@H](CCCNC(=N)N)NC2=O)C(=O)NCCCC[C@@H]2NC(=O)[C@@H](Cc3ccccc3)NC(=O)[C@H](CC(=O)O)NC(=O)CNC(=O)[C@H](CCCNC(=N)N)NC2=O)C(=O)NCCCC[C@@H]2NC(=O)[C@@H](Cc3ccccc3)NC(=O)[C@H](CC(=O)O)NC(=O)CNC(=O)[C@H](CCCNC(=N)N)NC2=O)NC(=O)[C@@H](Cc2ccccc2)NC(=O)[C@H](CC(=O)O)NC(=O)CNC1=O [indium-111 labelled]  tissue uptake (female athymic nu/nu mice, blood; intravenous, 24 h): 0.04 ± 0.01 %ID/g

For quick reference, copied from above:
Cc1cc(O)cc(C)c1C[C@H](NC(=O)[C@@H]1CCCN1C(=O)[C@H](CCCNC(=N)N)NC(=O)[C@H](CCCNC(=N)N)N(C)C(=O)[C@@H]1CCCN1C(=O)[C@H](CCCCN)NC(=O)CCNC(=O)CN1CCN(CC(=O)O)CCN(CC(=O)O)CCN(CC(=O)O)CC1)C(=O)N[C@H](C(=O)N[C@@H](CC(C)C)C(=O)O)C(C)(C)C [lutetium-177 labelled]  tissue uptake (CF-1 mice, small intestine; dose not given, 1 h): 3.31 ± 0.41 %ID/g
